Published values gathered from unrelated publications.
Parts stem from different laboratories: compare values within a part only. Positions count from the first letter of the parent shown.

Set 1
Target: Histone acetyltransferase KAT6A, both winged helices, GST fusion (KAT6A, Homo sapiens, UniProt Q92794, residues 1-181)
Technique: protein binding microarray
Form: double-stranded DNA, one strand shown
Medium: in vitro
Tested at: not given
Notes: 8-mer, flanks averaged, mean of 2 arrays, mostly near background
Baseline: not given
Direction: higher = stronger binding
Construct (chain): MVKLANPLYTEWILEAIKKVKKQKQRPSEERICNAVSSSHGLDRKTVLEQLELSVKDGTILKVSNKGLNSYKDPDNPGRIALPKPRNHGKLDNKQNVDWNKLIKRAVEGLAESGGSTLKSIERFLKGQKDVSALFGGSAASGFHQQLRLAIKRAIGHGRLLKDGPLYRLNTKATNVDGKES
Strand | E-score
CCACACAA | -0.181
ATCAGTCC | -0.0864
GGTGGAGA | -0.159
CAGGCGGA | 0.144
ATGATAGA | -0.0642
CGTGTTTA | 0.0416
AATGAGAA | -0.0102
CGCGTCCC | 0.2
AGCGCGGG | 0.341
GTCTTTCA | -0.0121
ATACCGAC | 0.0411
AGGAGCGC | 0.233
CCAAGGGC | 0.0134
CCCCGAAA | -0.0925
AATACTCC | -0.124
AAAGGGCC | -0.115
ACTGTTAA | -0.0311
ATATTTAC | 0.0286
ACTGTATG | -0.0457
AGTGTCCC | -0.0314
ATCGGCAG | 0.164
CGGTCGGA | 0.11
CAATATTA | 0.0153
AGGCTTGG | -0.0978
GGAAATCA | 0.0114

Set 2
Target: RNA binding protein fox-1 homolog 2, RRM domain, GST-SBP tag (RBFOX2, Homo sapiens, UniProt O43251-10, residues 100-194)
Technique: RNA Bind-n-Seq
Form: RNA
Medium: in vitro
Tested at: 365 nM
Notes: natural RNA segment, single round, ends assumed
Baseline: no-protein control
Direction: higher = stronger binding
All sequences stand within: GGGAGUUCUACAGUCCGACGAUC … UGGAAUUCUCGGGUGCCAA
Target sequence (chain): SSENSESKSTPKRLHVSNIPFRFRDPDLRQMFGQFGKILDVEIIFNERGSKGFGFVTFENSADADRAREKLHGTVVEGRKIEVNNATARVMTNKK
Strand | RBNS enrichment (R)
UAUAUGUAUAUGCUGUGUCAUACUCAUAAUCUGGAAAUGAAUAAAGUGAUAUAUUCCUGGUUUGUAAUUUGUUCCUAGUUUGUCUUUUUUCAUGGUGAUGUUUGUUUCCU | 1.57
ACUUGAAGAAGUGUCCUCAGCAUGUGCAGAGUCUACUACCCAGUACCAGUCGUGAGUCUGCAGGCUCCAGUGUUCUGUAGUAGUGUUUAUGGGCCUUGGGAGUACUUCUC | 3.56
AAUAAGAAAAGAGGACUUAAUUCUGAUCUUUUCUAAGCCAAGAGCAGAAAAGACUUCUUAAAUCCACUCCAGGGAAUACUUGAAAGGCAAGUCAUUGUGACUAACACUUC | 0.191
GGGUUGUGUUGGAUGGGAUGAUCUGUUGCAGAGGGAGAGGCAGGGAACCCUGCUCCUUCGGGCCCCAGGUUGAUCCUGUGACUGAGGCUCCCCCUCAUGUAGCCUCCCCA | 0.501
GGGGCCCCUCGGGCCUCACUUGCCCUGAGCCCAGGAGUCCAAGGGCAGGGUGGGUCCAGCCUUGAGCCCCUCCACCCCCAAAUCCUUCCUCUCCUCCCAGUCCCACCCCU | 0.459
AUGUGUUUGUCUCUGCUGCUUGACCUCAUGGGAUGUACCCUCCAGUUCAACUGCCCAAAACAGACAGCCCCUUCCAAGCACCGUUCUUUGACAGCGGUAGCAGCUACCUA | 0.364
UCCUCCCACCUGCCUUCCUCCAUACAAACUAACAGUCUCAUGGGGGGAAGAAAGCAAGGGACAAAGAACUGCAAGGGGCCAAAGCCAAAGAUCUAUCCGAGUGCUUCCUU | 0.333
UACUAUCAAAAACUAAGAACAUAGUUGAAGCAUGCUUCCUGAAAAUUAACUACAUUAGAAACUGACAUCCUUAUACUGGUCUCCCAAGUACAAAAGUAGGAAGAAGCCGU | 5.65
AGCUUGGGAAAUAGCCCUUGGUGUGGGUUUUAUCUCUGGUUUGUGUUCUCCGUGGUGGAAUUGACCGAAAGCUCUAUGUUUUCGUUAAUAAAGGGCAACUUAGCCAAGUU | 0.317
AUCCUUCCUGCUUAAGGACUCAGAAACAAGUCAGCGUCUGGCCAACCUCAGGCAACGGGUGGAGCAGUUUGCCAGGGCCUUCCCCAUGCCUGGUUUUGAUGAGCAUUGAA | 1.29
UUAUUUUUACUCAGUGACAUAAUUUUUAGUUUUAUUCCUCAUAGCAAAAGGAAAAAAAAAAUCCCAAUCCUCAAAAGGUCAAGGCCCCGUCCCCUGUUGUCGGUGAUUUG | 0.571
UGGGUGGCGGGCUAGAGACCCUUGCCUGUGUCCGGGACCCUGGCGCCGCUCUCCCCUCCUGUGGAUCCCUCCGCACUAACAGUGUUCUCAGUGGGCAGACGCCUGGGCAC | 2.15

Set 3
Target: ABI1, truncated, D143A, DHFR fusion (Arabidopsis thaliana)
Technique: DHFR PCA, deep sequencing
Medium: yeast
Notes: methotrexate growth selection, single substitutions
With: (+)-ABA 200 µM
Baseline: wild-type fitted maximum
Direction: higher = stronger binding
Parent: PYL1, truncated, DHFR fusion (Arabidopsis thaliana); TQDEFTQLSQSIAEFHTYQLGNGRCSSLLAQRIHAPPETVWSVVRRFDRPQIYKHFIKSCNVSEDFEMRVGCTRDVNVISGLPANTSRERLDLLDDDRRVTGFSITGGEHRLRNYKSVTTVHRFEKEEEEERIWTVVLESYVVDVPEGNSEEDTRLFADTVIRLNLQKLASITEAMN
Variant | relative binding score [%]
T1H | 103
E125I | 104
L169W | -6.35
L91D | 10.5
A170G | 88.4
V100K | 24.4
Q19T | 104
S80W | 54.5
T154N | -11.1
L112F | 106
P37K | 38.1
D97T | 111
A84G | 96.3
I162H | 8.29

Set 4
Target: Sal-like protein 4, full length isoform A (SALL4, Homo sapiens, UniProt Q9UJQ4, residues 1-1053)
Sequence of UniProt Q9UJQ4 (whole entry, looked up): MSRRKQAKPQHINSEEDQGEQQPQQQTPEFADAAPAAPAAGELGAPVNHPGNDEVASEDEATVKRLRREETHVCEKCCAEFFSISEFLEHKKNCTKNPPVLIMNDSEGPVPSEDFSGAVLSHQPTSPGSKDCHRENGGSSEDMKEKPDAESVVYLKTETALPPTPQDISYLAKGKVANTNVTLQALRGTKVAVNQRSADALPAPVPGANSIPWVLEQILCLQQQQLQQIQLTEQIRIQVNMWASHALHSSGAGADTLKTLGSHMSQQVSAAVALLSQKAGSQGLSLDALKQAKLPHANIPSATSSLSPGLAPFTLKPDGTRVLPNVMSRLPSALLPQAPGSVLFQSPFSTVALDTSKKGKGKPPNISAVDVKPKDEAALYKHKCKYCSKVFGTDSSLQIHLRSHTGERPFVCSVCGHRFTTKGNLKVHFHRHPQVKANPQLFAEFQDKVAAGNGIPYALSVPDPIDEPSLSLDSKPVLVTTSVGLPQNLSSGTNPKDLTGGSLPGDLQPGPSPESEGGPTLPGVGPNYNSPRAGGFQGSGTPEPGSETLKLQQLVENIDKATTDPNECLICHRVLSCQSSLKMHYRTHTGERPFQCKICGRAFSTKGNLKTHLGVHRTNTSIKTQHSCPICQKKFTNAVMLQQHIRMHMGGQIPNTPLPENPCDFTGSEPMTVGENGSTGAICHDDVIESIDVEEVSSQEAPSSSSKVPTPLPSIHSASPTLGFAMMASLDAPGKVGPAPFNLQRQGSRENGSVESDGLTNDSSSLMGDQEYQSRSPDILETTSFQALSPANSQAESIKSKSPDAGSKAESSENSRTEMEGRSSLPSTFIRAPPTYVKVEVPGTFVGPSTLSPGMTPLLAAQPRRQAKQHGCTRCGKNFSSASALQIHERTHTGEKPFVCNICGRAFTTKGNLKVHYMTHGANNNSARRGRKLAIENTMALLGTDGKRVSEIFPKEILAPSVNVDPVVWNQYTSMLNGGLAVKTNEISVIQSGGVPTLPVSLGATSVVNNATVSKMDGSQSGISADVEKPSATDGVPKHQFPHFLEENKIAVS
Technique: universal PBM
Form: double-stranded DNA, one strand shown
Medium: in vitro
Tested at: 600 nM
Notes: 8-mer, flanks averaged, mean of replicates
Direction: higher = stronger binding
Strand | E-score
CGCCTCGC | -0.307
CAATGCGG | -0.234
ACAACGCA | -0.00034
TGTGAGAA | 0.224
ATGTCGGA | -0.0527
ATTTTAGA | 0.238
CCTGCGTA | -0.0989
ATTATTCC | 0.249
ATCCAGTA | 0.0755
TTAAGTAA | 0.21
ACGTCATA | 0.317
GAGTGTTA | 0.194
ATTGAACA | 0.0747
ATTGCCGC | -0.0771
ATTATGGC | 0.231
AGGAAGCC | -0.172
TACCATCA | -0.00588
TAAGGATA | 0.167

Set 5
Target: Interferon regulatory factor 5, full length, phosphomimetic (IRF5, Homo sapiens, UniProt Q13568-2, residues 1-514, K96S/S451D/S453D/S456D/S462D)
Technique: protein-binding microarray
Form: double-stranded DNA, one strand shown
Medium: in vitro
Tested at: 250 nM
Notes: 60-bp whole probe
With: salmon DNA 0.4 mg/ml
Baseline: random background probes
Direction: higher = stronger binding
All sequences stand within: GCCTAGCAC … GTCTTGATTCGCTTGACGCTGCTG
Strand | log fluorescence [z-score]
TTAGGTTTCCTTTCCCTTTTGTGCTAG | 2.08
TTTGGTCTCGGTCTCGGTTAGTGCTAG | 1.78
TATGGCTTCAAGTAACTACAGTGCTAG | -0.0597
CTAGATCTCAGTATCGATTAGTGCTAG | 6.59
TTATAACTGAGACTGGATTAGTGCTAG | 0.126
TTACGTTTCGGTTTCGGTTAGTGCTAG | 12.1
GACCATCTCAGACTGGAGACGTGCTAG | -0.671
TTAGTTCTCCTTCTCCTTTAGTGCTAG | 0.839
GACGGTAACGGACTGGGGACGTGCTAG | -0.289
TCAACTAGGGAATTTAGAACTGTGCTA | -0.0438
TCAATTTTAGTTTTCATACTGTGCTAG | 1.87
TTAGGTTTCCTCCTGCTTTAGTGCTAG | 0.337
GACGCACTGGGGTTTCGAGACGTGCTA | 0.79
TTAGACCTGAGTTTCGATTAGTGCTAG | 9.31
TTAGGTCTCGGTTTCGGTTAGTGCTAG | 8.67
TTAGATTTCAGTTCCGATTAGTGCTAG | 2.98
TTAGGACTGGGTATCGATTAGTGCTAG | 2.96
TTAGGTTTCGACTAGCGGTTAGTGCTA | 7.43
TTAGGTTTCCTTCTACTTTAGTGCTAG | 1.25
TTAGCACTGGGTCTCGGTTAGTGCTAG | 0.161
TTAGGTATCAGTTTCGGTTAGTGCTAG | 10.3

Set 6
Target: CCNB2, cyclin fold, Cln2 fusion (human)
Technique: yeast growth competition, sequencing
Medium: yeast
Notes: weak parent motif
Baseline: not given
Direction: higher = stronger binding
Parent: MASTL docking peptide (human); PMIAKNLMCELDE; partner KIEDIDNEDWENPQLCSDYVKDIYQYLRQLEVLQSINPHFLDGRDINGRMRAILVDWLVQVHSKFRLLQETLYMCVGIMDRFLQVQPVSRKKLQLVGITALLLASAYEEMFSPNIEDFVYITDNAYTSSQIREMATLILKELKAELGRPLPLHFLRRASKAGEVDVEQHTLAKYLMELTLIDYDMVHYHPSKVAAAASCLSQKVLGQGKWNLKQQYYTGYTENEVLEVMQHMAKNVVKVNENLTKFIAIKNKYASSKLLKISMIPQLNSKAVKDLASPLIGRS
Variant | normalised enrichment score
PQIAKNLMCELDE [M2Q] | 0.949
PMIAKNLMCILDE [E10I] | 0.709
PMIAKNLMCEVDE [L11V] | 0.109
PMIQKNLMCELDE [A4Q] | 0.173
PYIAKNLMCELDE [M2Y] | 0.55
PMIAKNYMCELDE [L7Y] | -0.111
PMIAKNLMDELDE [C9D] | 0.621
PMIASNLMCELDE [K5S] | -0.25
PMIAKILMCELDE [N6I] | 0.271
PMIYKNLMCELDE [A4Y] | -0.244
PMIAMNLMCELDE [K5M] | 0.0917
PMIAKELMCELDE [N6E] | -0.479
PMYAKNLMCELDE [I3Y] | 0.288
PMIAKNLHCELDE [M8H] | 0.0615
PMIAKFLMCELDE [N6F] | -0.273
PMIAKNLMCNLDE [E10N] | 0.0618
PMIAKNLYCELDE [M8Y] | 0.388

Set 7
Target: CEBPD, bZIP domain (human)
Technique: DHFR protein complementation
Medium: yeast
Notes: single substitutions, most at no-binding floor
Baseline: wild-type JUN-FOS pair
Direction: higher = stronger binding
Parent: JUN, bZIP domain (human); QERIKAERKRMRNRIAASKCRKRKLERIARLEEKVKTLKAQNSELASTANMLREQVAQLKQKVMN; partner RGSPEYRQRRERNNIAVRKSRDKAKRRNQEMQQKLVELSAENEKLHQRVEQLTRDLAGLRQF
Variant | binding fitness
L31G | -1.45 natural log
N42Q | -1.33 natural log
E32R | -1.3 natural log
S43N | -1.24 natural log
R53M | -1.32 natural log
M51Q | -1.32 natural log
T48E | -1.41 natural log
Q55M | -1.45 natural log
L52P | -1.48 natural log
S47Q | -1.3 natural log
V35E | -1.49 natural log
E44T | -1.37 natural log
A49V | -1.21 natural log
A40H | -1.33 natural log
L59H | -1.4 natural log
L52G | -1.52 natural log
K39I | -1.35 natural log
S43P | -1.46 natural log
T48W | -1.43 natural log

Repeated from above (set 3):
Variant | relative binding score [%]
T1H | 103
E125I | 104
L169W | -6.35
L91D | 10.5
A170G | 88.4
V100K | 24.4
Q19T | 104
S80W | 54.5
T154N | -11.1
L112F | 106
P37K | 38.1
D97T | 111
